Published values collected from several papers.
Protocols differ between the studies behind these lines. ± gives the spread as reported. Where no end group is shown, it is not given here. No end group written: not given here. [ ]: non-standard residue; d: D form.
B1: UGT1A9 (Homo sapiens, UniProt O60656); chain GKLLVVPMDGSHWFTMRSVVEKLILRGHEVVVVMPEVSWQLGRSLNCTVKTYSTSYTLEDLDREFKAFAHAQWKAQVRSIYSLLMGSYNDIFDLFFSNCRSLFKDKKLVEYLKESSFDAVFLDPFDNCGLIVAKYFSLPSVVFARGILCHYLEEGAQCPAPLSYVPRILLGFSDAMTFKERVRNHIMHLEEHLLCHRFFKNALEIASEILQTPVTEYDLYSHTSIWLLRTDFVLDYPKPVMPNMIFIGGINCHQGKPLPMEFEAYINASGEHGIVVFSLGSMVSEIPEKKAMAIADALGKIPQTVLWRYTGTRPSNLANNTILVKWLPQNDLLGHPMTRAFITHAGSHGVYESICNGVPMVMMPLFGDQMDNAKRMETKGAGVTLNVLEMTSEDLENALKAVINDKSYKENIMRLSSLHKDRPVEPLDLAVFWVEFVMRHKGAPHLRPAAHDLTWYQYHSLDVIGFLLAVVLTVAFITFKCCAYGYRKCLGKKGRVKKAHKSKTH

The adherent cells of `CSTSCR` is reported as 39% (B16-F10; peptide; 2 µg coated per well, 30 to 60 min; reference: thrombospondin-coated wells).
`V[dP]IA (D-Pro2)` gave a cell viability of 72.1% (PC-12; protection from Aβ1–42 toxicity, MTT; concentration not given, 6 h, Aβ to peptide ratio 1:1, with: Aβ1–42 2 µM; reference: untreated cells).
For `Cc1cccc(C=NNc2nc(-c3ccc(C#N)cc3)cs2)c1O`, the inhibition was 5 to 50% (HCT-116; colony formation; 5 µM, 24 h).
The therapeutic window of `Nc1ccc(-c2ccc3ncc4ccc(=O)n(-c5cccc(C(F)(F)F)c5)c4c3c2)cn1` is reported as 6 (NIH3T3 in SKOV/NIH microtissues; fibroblast toxicity; chronic toxicity, unit not given; reference: AC50 ATP over AC50 NanoLUC, day 7).
`N=C(N)c1ccc(/N=N/Nc2ccc(C(=N)N)cc2)cc1`: “action potential firing frequency” “no effect” (mouse cultured hippocampal neurons; current clamp; 10 µM, with: current injection).
`VVI[dF] (D-Phe4)` has a cell viability of 70% (PC-12; protection from Aβ1–42 toxicity, MTT; concentration not given, 6 h, Aβ to peptide ratio 1:1, with: Aβ1–42 2 µM; reference: untreated cells).
`PACAP-27` — result for “time to peak”: about 15 s (NCI-H838; Fura-2 fluorescence, measured: cytosolic Ca2+; 100 nM).
`N[C@@H](Cc1cc(I)c(Oc2ccc(O)c(I)c2)c(I)c1)C(=O)O`: mRNA level “increased” (iPSC-derived intestinal progenitor cells; measured: villin 1; concentration not given; reference: DMSO).
`Cn1c(=O)c(F)c(Nc2ccc(I)cc2F)c2c(=O)n(C[C@@H](O)CO)cnc21` has a therapeutic window of 1.69 (NIH3T3 in SKOV/NIH microtissues; fibroblast toxicity; 168 h, chronic toxicity, unit not given; reference: AC50 ATP over AC50 NanoLUC, day 7).
`VV[Nle]A (Nle3; Nle = CCCC[C@H](N)C(=O)O)` has a cell viability of 70% (PC-12; protection from Aβ1–42 toxicity, MTT; concentration not given, 6 h, Aβ to peptide ratio 1:5, with: Aβ1–42 2 µM; reference: untreated cells).
`C[C@@H]1[C@]2(O[C@H]3C=C4[C@@H]5CC[C@H]6Cc7nc8c(nc7C[C@]6(C)[C@H]5C[C@@H](O)[C@]4(C)[C@]31O)C[C@@H]1CC[C@H]3C4=CC[C@@H]5[C@H](C)[C@@]6(OC[C@]45C(=O)C[C@@H]3[C@@]1(C)C8)OC(C)(C)C[C@H]6O)O[C@](C)(CO)C[C@H]2O` — result for “antiproliferative activity change”: “no effect” (CHO NPC1-/- (M12); concentration not given; reference: wild-type CHO).
The cell viability of `VV[dA]A (D-Ala3)` is reported as 73.3% (PC-12; protection from Aβ1–42 toxicity, MTT; concentration not given, 6 h, Aβ to peptide ratio 1:10, with: Aβ1–42 2 µM; reference: untreated cells).
For `Cy5-CVWSLQNTLFM (Cy5-labelled; sequence looked up)`, insulin secretion read “no effect” (INS-1E; glucose-stimulated insulin secretion, proinsulin-luciferase; peptide; 10 µM, 5 min, with: glucose 20 mM, 20 min).
`CCN(CC)CCNC(=O)c1c(C)[nH]c(/C=C2\C(=O)Nc3ccc(F)cc32)c1C` gave a therapeutic window of 1.64 (NIH3T3 in SKOV/NIH microtissues; fibroblast toxicity; 168 h, chronic toxicity, unit not given; reference: AC50 ATP over AC50 NanoLUC, day 7).
`C[C@]12CC[C@@H]3c4ccc(O)cc4CC[C@H]3[C@@H]1CC[C@@]2(O)C=Cc1cc(C(F)(F)F)ccc1C(F)(F)F` — result for “relative stimulatory activity”: 29.7% (Ishikawa; alkaline phosphatase induction, agonist; concentration not given, 3 d; reference: estradiol).
`N#CC(=C(/N)Sc1ccccc1N)/C(C#N)=C(/N)Sc1ccccc1N` has a firing duration of 3.2 ± 0.8 min (rat lamina I NK1R neurons; spinal cord slices; concentration not given, with: substance P).
`NC(=O)c1ccc(-c2nc(-c3ccc4c(c3)OCO4)c(-c3ccccn3)[nH]2)cc1` — result for mRNA level: “increased” (iPSC-derived intestinal progenitor cells; measured: ISX; concentration not given; reference: DMSO).
`VV[Aib]A (Aib3; Aib = CC(C)(N)C(=O)O)` has a cell viability of 70.3% (PC-12; protection from Aβ1–42 toxicity, MTT; concentration not given, 6 h, Aβ to peptide ratio 1:1, with: Aβ1–42 2 µM; reference: untreated cells).
`CC(C)NCC(O)COc1cccc2ccccc12` (racemic): active force “decreased” (hiPSC-derived 3D engineered cardiac tissue; contractility; serum-free medium; concentration not given, 15 min, paced at 1 Hz; reference: time-matched vehicle).
`COc1cc2c(Nc3ccc(Br)cc3F)ncnc2cc1OCC1CCN(C)CC1` — result for activity call: “inactive” (human iPSC-derived cardiomyocytes; calcium transient decay-rise ratio; up to 100 µM, population median of 5 donors).
The viability of `CC[C@H](C)[C@H](NC(=O)[C@@H](NC(=O)[C@H](N)C(C)C)C(C)C)C(=O)N[C@@H](C)C(N)=O` is reported as 100% (PC-12; Aβ42-induced neurotoxicity, inhibitor, MTT; concentration not given, 6 h, 37 °C, peptide to Aβ42 1:2, with: Aβ42 2 µM; reference: untreated cells).
`VV[dF]A (D-Phe3)` has a cell viability of 73% (PC-12; protection from Aβ1–42 toxicity, MTT; concentration not given, 6 h, Aβ to peptide ratio 1:5, with: Aβ1–42 2 µM; reference: untreated cells).
`NC(=O)c1ccc(-c2nc(-c3ccc4c(c3)OCO4)c(-c3ccccn3)[nH]2)cc1`: reporter activity “decreased” (HepG2 cells; reporter gene, inhibitor, measured: SBE4-luciferase; 10 µM, 8 h, with: activin A).
`methyl-β-cyclodextrin` has an aspiration pressure of 38 ± 9 pN/µm² (K562 cells; micropipette aspiration; 10 mM, 15 min, 37 °C).
With `CC(C)C[C@H](NC(=O)[C@H](CCc1ccccc1)NC(=O)CN1CCOCC1)C(=O)N[C@@H](Cc1ccccc1)C(=O)N[C@@H](CC(C)C)C(=O)[C@@]1(C)CO1` the therapeutic window was 12.8 (NIH3T3 in HEY/NIH microtissues; fibroblast toxicity; 168 h, chronic toxicity, unit not given; reference: AC50 ATP over AC50 NanoLUC, day 7).
`C/C(=N\N=c1/[nH]c(C)c(/N=N/c2ccc(C)cc2)s1)c1ccccn1` has an inhibition of 71% (HEp-2; cell growth or viability, SRB; 100 µg/mL, 48 h).
With `[dP]VIA (D-Pro1)` the cell viability was 72.7% (PC-12; protection from Aβ1–42 toxicity, MTT; concentration not given, 6 h, Aβ to peptide ratio 1:5, with: Aβ1–42 2 µM; reference: untreated cells).
With `CCn1c(C)c(C(C)=O)s/c1=N/N=C(\C)c1ccccn1` the inhibition was 71.9% (HEp-2; cell growth or viability, SRB; 100 µg/mL, 48 h).
For `V[dA]IA (D-Ala2)`, the cell viability was 70% (PC-12; protection from Aβ1–42 toxicity, MTT; concentration not given, 6 h, Aβ to peptide ratio 1:10, with: Aβ1–42 2 µM; reference: untreated cells).
With `Insulin human` the brain concentration was 41.8 ± 25.6 pg/mg tissue (rat, dorsal cortex; intranasal, 20 µg per nostril, 15 min).
`COC1=CC(c2cc3ccccc3[nH]2)=N/C1=C\c1[nH]c(C)cc1C` gave a therapeutic window of 2.77 (NIH3T3 in SKOV/NIH microtissues; fibroblast toxicity; 168 h, chronic toxicity, unit not given; reference: AC50 ATP over AC50 NanoLUC, day 7).
`C[C@H](CS)C(=O)N1CCC[C@H]1C(=O)O` — result for active force: “no effect” (hiPSC-derived 3D engineered cardiac tissue; contractility; serum-free medium; concentration not given, 15 min, paced at 1 Hz; reference: time-matched vehicle).
With `O=C(/C=C/c1ccc(O)cc1)c1ccc(O)cc1O` the GSH level was 2.5 fold (H4IIE; 160 µM, 24 h; reference: DMSO).
`C/C(=N\N=C1/NC(=O)/C(=C\c2ccc(Cl)cc2)S1)c1ccccn1` has an inhibition of 73.7% (HEp-2; cell growth or viability, SRB; 100 µg/mL, 48 h).
For `B1 (UGT1A9)`, the Vmax/Km was 3730 µL/min/mg (COc1ccc2c(=O)c(-c3ccccc3)coc2c1O; steady-state kinetics; pH 7.4, 37 °C).
The ROS level of `COc1nc(C)cnc1NS(=O)(=O)c1cccnc1-c1ccc(-c2nnco2)cc1` is reported as 116 ± 9% (NCI-H838; H2DCF fluorescence, measured: reactive oxygen species; 10 µM, 0.5 h pretreatment, 0.5 h after ET-1, with: endothelin-1 100 nM; reference: untreated).
`CC12CCC3c4ccc(O)cc4CCC3C1CCC2(O)C=Cc1cc(C(F)(F)F)cc(C(F)(F)F)c1` (stereo not shown): “relative stimulatory activity” 3.5 ± 0.7% (Ishikawa; alkaline phosphatase induction, agonist; concentration not given, 3 d; reference: estradiol).
`Oc1cc(O)c2cc(O)c(-c3cc(O)c(O)c(O)c3)[o+]c2c1` has a VEGF-A165b/VEGF-A165a ratio of 2.67 (human podocytes; RT-PCR or Western blot, measured: VEGF-A165b and VEGF-A165a; high glucose (diabetic); 10 µg/mL, 48 h).
`CCN1C(=O)C(C(C)=O)S/C1=N/N=C(\C)c1ccccn1` (stereo not shown) gave an inhibition of 72.4% (HEp-2; cell growth or viability, SRB; 100 µg/mL, 48 h).
The IC50 ratio of `Nc1nc2[nH]c(CCCc3ccc(C(=O)N[C@@H](CCC(=O)O)C(=O)O)c(F)c3)cc2c(=O)[nH]1` is reported as 6 fold (R2/PCFT4 CHO expressing human PCFT; cell growth; reference: nonfluorinated over fluorinated homologue).

Repeated from above:
`NC(=O)c1ccc(-c2nc(-c3ccc4c(c3)OCO4)c(-c3ccccn3)[nH]2)cc1` — result for mRNA level: “increased” (iPSC-derived intestinal progenitor cells; measured: ISX; concentration not given; reference: DMSO).
For `Cc1cccc(C=NNc2nc(-c3ccc(C#N)cc3)cs2)c1O`, the inhibition was 5 to 50% (HCT-116; colony formation; 5 µM, 24 h).
